Earlier results as cited in several papers.
Each numbered part shows a few of the values that one paper quotes.

Series 1 — organism: Cryptosporidium parvum; method: high-throughput screen; concentration: concentration not given
SMILES | activity
CCCCNc1cc(C(=O)O)cc(S(N)(=O)=O)c1Oc1ccccc1 | inactive
C[C@H](CCC(=O)O)[C@H]1CC[C@H]2[C@@H]3C(=O)C[C@@H]4CC(=O)CC[C@]4(C)[C@H]3CC(=O)[C@]12C | inactive
CO[C@H]1/C=C/O[C@@]2(C)Oc3c(C)c(O)c4c(O)c(c(/C=N/N5CCN(C6CCCC6)CC5)c(O)c4c3C2=O)NC(=O)/C(C)=C\C=C\[C@H](C)[C@H](O)[C@@H](C)[C@@H](O)[C@@H](C)[C@H](OC(C)=O)[C@@H]1C | inactive

Single results of other studies
Compound | target or system | assay | quantity | result
CCCOc1ccc([C@H]2[C@H](C(=O)O)[C@@H](c3ccc4c(c3)OCO4)CN2CC(=O)Nc2c(CC)cccc2CC)cc1 | EDNRB | cell-based | IC50 | 0.8 nM
CC(C)c1cc(C(=O)N2Cc3ccc(CN4CCN(C)CC4)cc3C2)c(O)cc1O | Hsp90 (isoform unspecified) |  | IC50 | 18 nM
CN([C@@H]1CCc2c(CC(=O)O)c3ccccc3n2C1)S(=O)(=O)c1ccc(F)cc1 | PTGDR2 | cellular activity | IC50 | 3 nM
O=c1[nH]c2ccccc2s1 |  |  | log Kow | 1.78
CCOCCn1cc(C(=O)Nc2ccc(-n3nc(-c4cccnc4)cc3C(F)(F)F)cn2)ccc1=O | EPHX2 | biochemical activity | IC50 | 7 nM
CO[C@H]1CC[C@H](CNc2ccc(S(=O)(=O)NC(=O)c3ccc(N4CCN(CC5=C(c6ccc(Cl)cc6)CC(C)(C)CC5)CC4)cc3Oc3cnc4[nH]ccc4c3)cc2[N+](=O)[O-])CC1 | BCL2 | cell-based | EC50 | 6 nM

Repeated from above (series 1):
SMILES | activity
C[C@H](CCC(=O)O)[C@H]1CC[C@H]2[C@@H]3C(=O)C[C@@H]4CC(=O)CC[C@]4(C)[C@H]3CC(=O)[C@]12C | inactive
